Measured values of several laboratories.
Numbers after ± are the reported error.
OPRM1: Mu-type opioid receptor (OPRM1, Homo sapiens, UniProt P35372)
Sequence of UniProt P35372 (whole entry, looked up): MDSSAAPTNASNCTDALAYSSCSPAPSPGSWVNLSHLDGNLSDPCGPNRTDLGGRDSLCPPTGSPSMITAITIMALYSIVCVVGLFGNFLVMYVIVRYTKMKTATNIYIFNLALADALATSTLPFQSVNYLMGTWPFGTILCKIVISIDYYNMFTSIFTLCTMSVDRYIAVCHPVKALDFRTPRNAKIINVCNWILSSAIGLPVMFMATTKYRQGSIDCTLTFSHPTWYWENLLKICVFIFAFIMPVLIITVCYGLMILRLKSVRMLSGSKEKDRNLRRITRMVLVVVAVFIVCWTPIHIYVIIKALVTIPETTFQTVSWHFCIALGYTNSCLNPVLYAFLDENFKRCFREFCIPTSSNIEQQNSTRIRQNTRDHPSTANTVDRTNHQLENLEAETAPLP
rep main protease: Replicase polyprotein 1ab, main protease (rep, Severe acute respiratory syndrome coronavirus 2, UniProt P0DTD1)
rep papain-like protease: Replicase polyprotein 1ab, papain-like protease (rep, Severe acute respiratory syndrome coronavirus 2, UniProt P0DTD1)

| SMILES | target or system | assay | system | setting | endpoint | result |
| --- | --- | --- | --- | --- | --- | --- |
| CC(C)C[C@H](NC(=O)[C@H](CO[C@@H]1O[C@H](CO)[C@@H](O[C@@H]2O[C@H](CO)[C@H](O)[C@H](O)[C@H]2O)[C@H](O)[C@H]1O)NC(=O)[C@H](CCCCN)NC(=O)[C@H](CC(C)C)NC(=O)[C@H](C)NC(=O)[C@H](CCCCN)NC(=O)[C@H](CCC(=O)O)NC(=O)C(C)(C)NC(=O)[C@H](CC(C)C)NC(=O)[C@H](CC(N)=O)NC(=O)[C@@H]1CCCN1C(=O)[C@H](CC(C)C)NC(=O)[C@H](Cc1ccccc1)NC(=O)CNC(=O)[C@H](NC(=O)[C@@H](N)Cc1ccc(O)cc1)[C@H](C)O)C(N)=O | OPRM1 | radioligand displacement | CHO membranes | 60 min, pH 7.5, 25 °C, together with: 0.25 nM [3H]DAMGO | Ki | 0.013 ± 0.00054 µM |
| O=c1c2ccccc2sn1-c1ccccc1 | rep main protease | enzyme activity, inhibitor | – | 5 min preincubation | IC50 | 0.19 ± 0.01 µM |
| O=C(/C=C/c1ccc(O)c(O)c1)O[C@@H]1Cc2c(O)cc(O)cc2O[C@@H]1c1cc(O)c(O)c(O)c1 | rep main protease | enzyme activity, inhibitor, FRET | – | – | IC50 | 9.09 µM |
| COC(=O)C[C@@H](C(=O)OC)n1[se]c2ccccc2c1=O | rep main protease | enzyme activity, inhibitor | – | – | IC50 | 0.101 µM |
| CCCCNC(=O)C[C@H](Cc1ccc(F)cc1)NC(=O)[C@@H](Cc1ccc(Cl)cc1Cl)NC(=O)[C@H](N)Cc1ccccc1C#N | rep main protease | enzyme activity, inhibitor, fluorescence | – | – | IC50 | 0.2 µM |
| CC(C)C[C@H](NC(=O)[C@H](CO[C@@H]1O[C@H](CO)[C@@H](O)[C@H](O)[C@H]1O)NC(=O)[C@H](CCCCN)NC(=O)[C@H](CC(C)C)NC(=O)[C@H](C)NC(=O)[C@H](CCCCN)NC(=O)[C@H](CCC(=O)O)NC(=O)CNC(=O)[C@H](CC(C)C)NC(=O)[C@H](CC(N)=O)NC(=O)[C@@H]1CCCN1C(=O)[C@H](CC(C)C)NC(=O)[C@H](Cc1ccccc1)NC(=O)CNC(=O)[C@H](NC(=O)[C@@H](N)Cc1ccc(O)cc1)[C@H](C)O)C(N)=O | OPRM1 | radioligand displacement | CHO membranes | 60 min, pH 7.5, 25 °C, together with: 0.25 nM [3H]DAMGO | Ki | 0.0029 ± 0.00032 µM |
| N#Cc1ccccc1C[C@@H](N)C(=O)N[C@H](Cc1ccc(Cl)cc1Cl)C(=O)N[C@H](CC(=O)O)Cc1ccc(F)cc1 | rep main protease | enzyme activity, inhibitor, fluorescence | – | – | IC50 | 4 µM |
| Nc1ncnc2c1ncn2[C@@H]1O[C@H](CSCc2cc(C(=O)O)cc(-n3ccnc3)c2)[C@@H](O)[C@H]1O | Replicase polyprotein 1ab, nsp16 with nsp10 (rep, Severe acute respiratory syndrome coronavirus 2, UniProt P0DTD1) | methyltransferase activity, inhibitor | – | 30 min, 30 °C, together with: SAM 10 µM | IC50 | 0.006 ± 0.0004 µM |
| CCOC(=O)ONC(=O)c1ccc(C(C)(C)C)cc1 | rep main protease | enzyme activity, inhibitor, FRET | – | – | IC50 | 1.46 µM |
| CCC(C(=O)Nn1cccc1)n1cccc2nc(SCc3ccc(F)cc3)nc1-2 (stereo not shown) | rep papain-like protease | enzyme activity, inhibitor | – | – | IC50 | 2.63 µM |
| O=C(c1ccc([N+](=O)[O-])c(-n2ccnc2)c1)N(c1cccc(Cl)c1)c1nc2ccccc2s1 | rep main protease | Rev-Nluc reporter, inhibitor | – | – | IC50 | < 50 µM |
| COc1ccc(-c2oc3cc(O)cc(O)c3c(=O)c2O)c(OC)c1O | rep main protease | inhibitor | – | – | IC50 | 0.84 ± 0.06 µM |
| COC(=O)c1ccc2c(c1)CCC1C2=NN(c2ccc(C#N)c(Cl)c2)C1C1CCCC1 (stereo not shown) | Replicase polyprotein 1ab, methyltransferase (rep, Severe acute respiratory syndrome coronavirus 2, UniProt P0DTD1) | enzyme activity, inhibitor | – | – | IC50 | > 100 µM |
| COc1ccccc1-c1nc2sc3c(c2c(=O)o1)CCC3 | rep main protease | enzyme activity, inhibitor | – | – | IC50 | > 100 µM |
| C[n+]1ccc(C(=O)NCc2ccccc2)c(O)c1 | Replicase polyprotein 1ab, nsp12 with nsp7/nsp8 (rep, Severe acute respiratory syndrome coronavirus 2, UniProt P0DTD1) | RNA synthesis, inhibitor | – | 30 min | IC50 | 2000 to 3000 µM |
| O=C(NCCc1cccc(F)c1)[C@H](c1cncnc1)N(C(=O)[C@@H](F)Cl)c1ccc(S(F)(F)(F)(F)F)cc1 | rep main protease | enzyme activity, inhibitor | – | – | IC50 | 14 µM |
| O=c1cc(-c2ccc(OC3O[C@H](CO)[C@@H](O)[C@H](O)[C@H]3O)c(O)c2)oc2cc(O)cc(O)c12 (stereo partly shown) | Replicase polyprotein 1ab, nsp13 helicase (rep, Severe acute respiratory syndrome coronavirus 2, UniProt P0DTD1) | helicase unwinding activity | – | – | IC50 | > 30 µM |
| CNc1nc(Nc2cccc3cnccc23)nc(N2CCN(C(=O)CCl)CC2)n1 | rep papain-like protease | enzyme activity, inhibitor, fluorescence | – | – | IC50 | 4.05 µM |
| CCCCCCCCCCCCCCCC(=O)N[C@@H](CCC(=O)NCCOCCOCCC(=O)NCCOCCOCCC(=O)NCCCC[C@H](NC(=O)[C@H](CC(=O)O)NC(=O)[C@H](CC(C)C)NC(=O)[C@H](Cc1ccc(O)cc1)NC(=O)[C@H](CCCCN)NC(=O)[C@H](CO)NC(=O)[C@H](Cc1ccc(O)cc1)NC(=O)[C@H](CC(=O)O)NC(=O)[C@H](CO)NC(=O)[C@@H](NC(=O)[C@H](Cc1ccccc1)NC(=O)[C@@H](NC(=O)CNC(=O)[C@H](CCC(N)=O)NC(=O)[C@@H](CO)NC(=O)[C@@H](N)Cc1c[nH]cn1)[C@@H](C)O)[C@@H](C)O)C(=O)N[C@@H](CCCNC(=N)N)C(=O)N[C@@H](CCCNC(=N)N)C(=O)N[C@@H](C)C(=O)N[C@@H](CCC(N)=O)C(=O)N[C@@H](CC(=O)O)C(=O)N[C@@H](Cc1ccccc1)C(=O)N[C@H](C(=O)N[C@@H](CCC(N)=O)C(=O)N[C@@H](Cc1c[nH]c2ccccc12)C(=O)N[C@@H](CC(C)C)C(=O)N[C@@H](CC(C)C)C(=O)N[C@@H](CC(N)=O)C(=O)N[C@H](C(=O)NCC(=O)NCC(=O)N1CCC[C@H]1C(=O)N[C@@H](CO)C(=O)N[C@@H](CO)C(=O)NCC(=O)N[C@@H](C)C(=O)N1CCC[C@H]1C(=O)N1CCC[C@H]1C(=O)N1CCC[C@H]1C(=O)N[C@@H](CO)C(N)=O)[C@@H](C)O)C(C)C)C(=O)O | – | – | rhesus monkey, plasma | subcutaneous, 5 µg/kg, single dose | half-life | 3.33 h |

Excerpt of the above:
| SMILES | target or system | assay | system | setting | endpoint | result |
| --- | --- | --- | --- | --- | --- | --- |
| COc1ccc(-c2oc3cc(O)cc(O)c3c(=O)c2O)c(OC)c1O | rep main protease | inhibitor | – | – | IC50 | 0.84 ± 0.06 µM |
| COC(=O)c1ccc2c(c1)CCC1C2=NN(c2ccc(C#N)c(Cl)c2)C1C1CCCC1 (stereo not shown) | Replicase polyprotein 1ab, methyltransferase (rep, Severe acute respiratory syndrome coronavirus 2, UniProt P0DTD1) | enzyme activity, inhibitor | – | – | IC50 | > 100 µM |
